Published values of several laboratories.
Numbers after ± are the reported error.

Structure (SMILES) | assay | test system | setting | scale | quantity | value
COc1ccc(F)cc1S(=O)(=O)Nc1cnc2c(c1)C(=O)NCCO2 | ultracentrifugation | mouse plasma | – | – | unbound fraction | 0.27 to 0.283
Cc1ccc(OCC(=O)N(Cc2cccs2)c2ccn[nH]2)cc1 | – | Crl:CD(SD) rat, bred female | oral, 300 mg/kg/day, total per group, developmental toxicity | – | total corpora lutea count | 422
[11CH3]n1c(=O)n(CCCO)c(=O)c2c1nc(Oc1cccc(OC(F)(F)F)c1)n2Cc1ccc(Cl)cc1 | PET | cynomolgus monkey, male, whole brain | – | – | maximum SUV | ~1.1
CC(C)[C@H](NC(=O)CNC(=O)[C@H](CCC(N)=O)NC(=O)[C@H](C)N)C(=O)O | – | human | 3 mg/kg single dose | – | subjects with any adverse event | 33.3%
CN[C@](C)(C[18F])C(=O)O | – | mouse, blood | 2 h, tumour-bearing | – | tracer uptake | 0.6 %ID/g
O=C(O)CCCN1CCN2CCN(CC1)CC(=O)[O][Al]([18F])[O]C(=O)C2 | – | Sprague-Dawley rat, normal, intestines and stomach | 60 min | – | bowel uptake | 0.7 ± 0.1 %ID
CC[C@H](C)[C@H](NC(=O)[C@H](CCC(=O)O)NC(=O)[C@H](CCC(=O)O)NC(=O)[C@H](Cc1ccccc1)NC(=O)[C@H](CC(=O)O)NC(=O)CNC(=O)[C@H](CC(N)=O)NC(=O)CNC(=O)CNC(=O)CNC(=O)CNC(=O)[C@@H]1CCCN1C(=O)[C@H](CCCNC(=N)N)NC(=O)[C@@H]1CCCN1C(=O)[C@H](N)Cc1ccccc1)C(=O)N1CCC[C@H]1C(=O)N[C@@H](CCC(=O)O)C(=O)N[C@@H](CCC(=O)O)C(=O)N[C@@H](Cc1ccc(O)cc1)C(=O)N[C@@H](CC(C)C)C(=O)O | – | male human, plasma | intravenous, 0.5 mg/kg, single dose, healthy volunteers | – | AUC(0-inf) | 1510 ng·h/mL
CSCC[C@H](NC(=O)[C@H](Cc1ccc(O)cc1)NC(=O)[C@@H](CC(=O)O)NC(=O)CN1CCN(CC(=O)O)CCN(CC(=O)O)CCN(CC(=O)O)CC1)C(=O)NCC(=O)N[C@@H](Cc1c[nH]c2ccccc12)C(=O)N[C@@H](CCSC)C(=O)N[C@@H](CC(=O)O)C(=O)N[C@@H](Cc1ccccc1)C(N)=O | – | MF1 nude mouse, male, HT29-CCK2R xenograft | intravenous, 0.2 µg, 4 h, 111In-labelled | baseline: tumour over kidney | tumour-to-kidney ratio | 0.06
COc1cccc2c1C(=O)c1c(O)c3c(c(O)c1C2=O)CC(O)(C(CO)=NNC(=O)CCCCC(=O)NNC(=O)CCCc1ccc(I)cc1)CC3OC1CC(N)C(O)C(C)O1 (stereo not shown) | – | ICR mice, male, plasma | intravenous, 6 mg/kg, equimolar doses | baseline: compound over free drug | terminal half-life ratio | 5.5 fold
CC[C@H](C)[C@H](NC(=O)[C@@H](Cc1ccccc1)NC)C(=O)N[C@@H](CO)C(=O)N[C@H](CCCNC(=N)N)C(=O)N[C@@H](C(=O)N[C@H](C(=O)N[C@@H](CO)C(=O)N[C@H]1C(=O)N[C@@H](C)C(=O)N[C@@H](CC(C)C)C(=O)N[C@@H]([C@@H](C)CC)C(=O)O[C@H]1C)[C@@H](C)CC)[C@@H](C)CC | – | acetonitrile-water | TFA salt | – | acetonitrile share for dissolution | ~35%
C/C=C/C=C/C/C=C/CCCCCCCc1cccc(O)c1O | – | female Kunming mice tumour-bearing, kidneys | intravenous, 10 mg/kg, 2 h | – | tissue concentration | 11600 ± 1140 ng/g
COc1ccc(C)cc1NC(=O)OC1CC2CCCC(C1)N2Cc1ccc(CC[18F])cc1 (stereo not shown) | – | mouse, bone | 1 h, tumour-bearing | – | tracer uptake | 4.87 %ID/g
COC(=O)C[C@](O)(CCCC(C)(C)OC(C)=O)C(=O)O[C@@H]1C(OC)=C[C@]23CCCN2CCc2cc4c(cc2[C@H]13)OCO4 | – | CD1 mouse, pancreas | subcutaneous, 1 mg/kg, 0.5 h | – | tissue concentration | 405 ng/mL
CC=C(C)C(=O)OC1C2C3(C)CCC(OC4CC(OC)C(OC5OC(C)C(O)C(OC)C5O)C(C)O4)CC3CCC23OC32CCC(C(C)=O)C2(C)C1OC(C)=O (stereo not shown) | – | Caco-2 | 10 µM | – | Papp A→B | 6.38 ×10⁻⁶ cm/s
CCCC[C@H]1C(=O)N(C)[C@@H](CCCC)C(=O)N[C@@H](CCCNC(=O)CN2CCN(CC(=O)O)CCN(CC(=O)O)CCN(CC(=O)O)CC2)C(=O)N[C@H](C(=O)NCC(N)=O)CSCC(=O)N[C@@H](Cc2ccc(O)cc2)C(=O)N(C)[C@@H](C)C(=O)N[C@@H](CC(N)=O)C(=O)N2CCC[C@H]2C(=O)N[C@@H](Cc2c[nH]cn2)C(=O)N[C@@H](CC(C)C)C(=O)N(C)CC(=O)N[C@@H](Cc2c[nH]c3ccccc23)C(=O)N[C@@H](CO)C(=O)N[C@@H](Cc2c[nH]c3ccccc23)C(=O)N1C [gallium-68 labelled] | static PET | NOD/SCID mice, CHO-hPD-L1 xenograft, CHO-hPD-L1 tumour | intravenous, 1 h post injection, after two atezolizumab treatments, added: atezolizumab 10 mg/kg | – | tumour uptake | 3.2 ± 0.17 %ID/g
CSCC[C@@H]1NC(=O)[C@@H]2CSSC[C@H](NC(=O)[C@H](CO)NC(=O)[C@H](C)N)C(=O)N[C@@H](CCCNC(=N)N)C(=O)N[C@@H]([C@@H](C)O)C(=O)N3CCC[C@H]3C(=O)N[C@@H](CCCCN)C(=O)N[C@@H](CC(=O)O)C(=O)N[C@H]3CSSC[C@H](NC(=O)[C@H](CCCCN)NC(=O)[C@H](CCCNC(=N)N)NC(=O)[C@H](CC(N)=O)NC1=O)C(=O)N[C@@H](CCCCN)C(=O)N[C@H]1CSSC[C@H](NC(=O)[C@@H]4CCCN4C(=O)[C@H](CC(=O)O)NC(=O)[C@H](C)NC3=O)C(=O)N[C@@H](C)C(=O)N[C@@H](CCCCN)C(=O)N[C@@H](CCC(=O)O)C(=O)N[C@@H]([C@@H](C)O)C(=O)NCC(=O)N[C@@H](CSSC[C@@H](C(N)=O)NC(=O)[C@H](CCCNC(=N)N)NC(=O)[C@H](CC(N)=O)NC1=O)C(=O)N1CCC[C@H]1C(=O)N[C@@H](Cc1ccc(O)cc1)C(=O)NCC(=O)N[C@@H](CCCCN)C(=O)N2 | – | DA rat pristane-induced arthritis, serum | subcutaneous, 0.1 mg/kg single dose at onset, 21 days | – | Cholesterol | 79.4 mg/dL
CCNC(=O)c1noc(-c2cc(C(C)C)c(O)cc2O)c1NC(=O)CCN1CCOCC1 | – | athymic nude mice, MV4-11 xenograft | intravenous or intraperitoneal, 200 mg/kg | – | tolerability | not toxic
CC(C)C[C@H](NC(=O)[C@H](CCCCN)NC(=O)[C@H](CCC(=O)O)NC(=O)[C@H](C)NC(=O)[C@@H](NC(=O)[C@H](CCCCN)NC(=O)[C@H](CC(=O)O)NC(=O)[C@H](Cc1ccc(O)cc1)NC(=O)[C@H](Cc1ccccc1)NC(=O)[C@H](C)NC(=O)[C@H](CCCCN)NC(=O)[C@H](CC(C)C)NC(=O)[C@H](Cc1c[nH]c2ccccc12)NC(=O)[C@@H](N)CC(=O)O)C(C)C)C(=O)N[C@@H](CCCCN)C(=O)N[C@@H](CCC(=O)O)C(=O)N[C@@H](C)C(=O)N[C@@H](Cc1ccccc1)C(=O)N1CCC[C@H]1C(=O)N[C@@H](CC(=O)O)C(=O)N[C@@H](Cc1c[nH]c2ccccc12)C(=O)N[C@@H](C)C(=O)N[C@@H](CCCCN)C(=O)N[C@@H](C)C(=O)N[C@@H](C)C(=O)N[C@@H](Cc1ccc(O)cc1)C(=O)N[C@@H](CC(=O)O)C(=O)N[C@@H](CCCCN)C(=O)N[C@@H](C)C(=O)N[C@@H](C)C(=O)N[C@@H](CCC(=O)O)C(=O)N[C@@H](CCCCN)C(=O)N[C@@H](C)C(=O)N[C@@H](CCCCN)C(=O)N[C@@H](CCC(=O)O)C(=O)N[C@@H](C)C(=O)N[C@@H](C)C(=O)O | – | cynomolgus monkey male, plasma | intravenous infusion, 8 mg/kg every other day, day 27 | – | Cmax | 164 µg/mL
C[S]1CC[S]2CC[P](CO)(CO)[99Tc+]12.[C-]#[O+].[C-]#[O+].[C-]#[O+] | – | CF-1 mouse | intravenous, 1 h | – | uptake in small intestine | 23.3 %ID
CC[C@H](C)C(=O)N1CCC(NC(=O)Nc2ccc(OC(F)(F)F)c(F)c2)CC1 | – | healthy volunteers | oral, 0.5 mg single dose | – | subjects with related TEAE | 0%
CN(C)C(CNC(=O)Nc1cc(C(F)(F)F)ccc1N1CCOCC1)c1ccncc1 (stereo not shown) | – | mouse, serum | intraperitoneal, 240 mg/kg single dose | – | amylase | 908 U/L
N=C(N)NCc1ccc(C(=O)NCCCC[C@H](NC(=O)N[C@@H](CCC(=O)O)C(=O)O)C(=O)O)cc1[211At] | – | SCID mouse, PC-3 xenografts, blood | 4 h | – | tissue uptake | 0.3 ± 0.08 %ID/g
CC(CCC(=O)NCC(=O)O)C1CCC2C3CCC4CC(OC5OC(C(=O)O)C(O)C(O)C5O)CCC4(C)C3CC(O)C12C (stereo not shown) | – | human, T/C genotype, plasma | dose not given, geometric mean, sex-adjusted | – | glucuronide to parent ratio | 0.848
CC[C@H](C)[C@H](NC(=O)[C@H](CCCCN)NC(=O)CNC(=O)[C@H](CC(C)C)NC(=O)[C@@H](NC(=O)[C@H](C)NC(=O)[C@H](CCCCN)NC(=O)CNC(=O)[C@H](C)NC(=O)CNC(=O)[C@H](CCCCN)NC(=O)[C@H](CCSC)NC(=O)[C@H](CCCCN)NC(=O)[C@@H](NC(=O)[C@H](Cc1c[nH]c2ccccc12)NC(=O)[C@H](CC(C)C)NC(=O)[C@H](CCC(=O)O)NC(=O)[C@H](CCCCN)NC(=O)[C@H](CC(C)C)NC(=O)[C@@H](N)CC(C)C)[C@@H](C)O)C(C)C)C(=O)N[C@@H](CCCCN)C(=O)NCC(=O)N[C@@H](CC(C)C)C(=O)N[C@@H](CC(C)C)C(=O)O | acrylamide quenching | DOPC:DOPG 3:1 vesicles | 2 µM, 250 µM total lipid, added: acrylamide | – | Stern-Volmer constant | 2.08 ± 0.27 M⁻¹
CC(C)C[C@@H](NC(=O)[C@@H](CCCNC(=N)N)NC(=O)[C@@H](Cc1c[nH]cn1)NC(=O)[C@@H](Cc1c[nH]c2ccccc12)NC(=O)[C@@H](Cc1c[nH]cn1)NC(=O)[C@@H](Cc1ccccc1)NC(=O)[C@H](NC(=O)[C@@H](Cc1ccc(O)cc1)NC(=O)CNC(=O)CNC(=O)CCOCCOCCOCCNC(=O)CN1CCN(CC(=O)O)CCN(CC(=O)O)CC1)[C@H](C)O)C(=O)N[C@H](CC(N)=O)C(=O)N1CCC[C@@H]1C(=O)O [gallium-68 labelled] | PET | human, large right lung primary tumour | – | – | SUVmax | 2.95 SUV
[2H]C([2H])([2H])C([2H])([2H])C([2H])([2H])OC(C(=O)OC1CCNCC1)(c1ccccc1)c1ccccc1 | measured: creatine phosphokinase increased | healthy Japanese male | oral, 12 mg once daily, 16 days | – | adverse events | 14.3%
CC(C)[C@H]1NC(=O)C[C@H]2/C=C/CCSSC[C@@H](NC1=O)C(=O)N[C@H](Cc1cccc3ccccc13)C(=O)NCC(=O)O2 | – | nude mouse, blood | intraperitoneal, 4 mg/kg | – | AUC(0-inf) | 16.3 ng·h/mL
CC(=O)NCC(=O)N[C@@H](C)C(=O)N[C@@H](CCCCNP(=O)(O)O)C(=O)NCC(=O)NCC(N)=O | non-enzymatic hydrolysis | – | 100 µM, pH 7.8, no enzyme | – | initial velocity | 2.48e-09 M/s

Excerpt of the above:
Structure (SMILES) | assay | test system | setting | scale | quantity | value
CN(C)C(CNC(=O)Nc1cc(C(F)(F)F)ccc1N1CCOCC1)c1ccncc1 (stereo not shown) | – | mouse, serum | intraperitoneal, 240 mg/kg single dose | – | amylase | 908 U/L
CC(C)[C@H]1NC(=O)C[C@H]2/C=C/CCSSC[C@@H](NC1=O)C(=O)N[C@H](Cc1cccc3ccccc13)C(=O)NCC(=O)O2 | – | nude mouse, blood | intraperitoneal, 4 mg/kg | – | AUC(0-inf) | 16.3 ng·h/mL
Cc1ccc(OCC(=O)N(Cc2cccs2)c2ccn[nH]2)cc1 | – | Crl:CD(SD) rat, bred female | oral, 300 mg/kg/day, total per group, developmental toxicity | – | total corpora lutea count | 422
CC(C)C[C@@H](NC(=O)[C@@H](CCCNC(=N)N)NC(=O)[C@@H](Cc1c[nH]cn1)NC(=O)[C@@H](Cc1c[nH]c2ccccc12)NC(=O)[C@@H](Cc1c[nH]cn1)NC(=O)[C@@H](Cc1ccccc1)NC(=O)[C@H](NC(=O)[C@@H](Cc1ccc(O)cc1)NC(=O)CNC(=O)CNC(=O)CCOCCOCCOCCNC(=O)CN1CCN(CC(=O)O)CCN(CC(=O)O)CC1)[C@H](C)O)C(=O)N[C@H](CC(N)=O)C(=O)N1CCC[C@@H]1C(=O)O [gallium-68 labelled] | PET | human, large right lung primary tumour | – | – | SUVmax | 2.95 SUV
